Experimental data from different studies.
Parts stem from different laboratories: compare values within a part only. Positions count from the first letter of the parent shown.

Set 1
Target: RING finger protein unkempt homolog, zinc fingers 1-6, GST-SBP tag (UNK, Homo sapiens, UniProt Q9C0B0, residues 30-357)
Sequence of UniProt Q9C0B0 (30-357, looked up): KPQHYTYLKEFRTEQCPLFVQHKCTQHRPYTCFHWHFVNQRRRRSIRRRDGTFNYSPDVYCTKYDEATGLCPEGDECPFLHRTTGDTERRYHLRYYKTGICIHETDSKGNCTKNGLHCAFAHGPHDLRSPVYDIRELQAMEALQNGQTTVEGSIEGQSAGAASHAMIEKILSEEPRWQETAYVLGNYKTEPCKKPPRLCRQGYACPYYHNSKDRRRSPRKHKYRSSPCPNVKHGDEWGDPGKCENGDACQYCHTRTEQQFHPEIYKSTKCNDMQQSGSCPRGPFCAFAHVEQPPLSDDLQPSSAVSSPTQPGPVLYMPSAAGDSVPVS
Method: RNA Bind-n-Seq
Molecule type: RNA
Matrix: in vitro
Concentration: not given
Setting: RNA with constant flanks, ends assumed
Baseline: input RNA pool
Reading: higher = stronger binding
Shared flanks, not repeated: GGGAGUUCUACAGUCCGACGAUC … CAACAGAGGAUUGAGCAUCA
Strand	bound/input enrichment [ratio]
GUUUUUGACAAUUUUUUUAUCAAGAAAGAGCAAAUAAAAAGCAGUGGUAAUGAUCCAAAGUACCGUACAACCACAGCUCAGAAUUCCAGCAGUUCAUCCAGUCAGAGCAAAAUGGUUAAU	0.279
GAAUACCAAAGUGAAGGACUUUGUGUCAUUCAGUAAAAUUUUCUUUUUUCAUAUCCUAAGCCGCUCCCAUUCCCUCACCUUUUCAAUCAGAAUUAACAAAUUCAAGCCUUCAGUAAAGUA	0.354
GAACAAGACAAUGGUGGCACCACAGAAUCUGUCAAAGAACAAGAAAUGAAGUGGACAGACUCCGCCUUACAGUACCUCCAUGAGAAUGUUCCCCCCAUUGGAAACUGACGCUUGGCUCCU	0.139
UAAAGGGAAAAGGCUAAAGAUCCACCCGCGGUUGCAUUUUCUUCUCUGUUAUCACUCUGCUACCCCGACUGUGAGAGGCUUUGCCUUCAGUCAGAUUACAGAGAGCAGGGUCUGACAUUG	0.0765
UCUUUUGAGGUAGUGGUGCUGGCUGAGCUGUUUGUAGAGAUGCUGCAGAGGGAUUUUGGCUACCGAAUUUAUAAGACGCUGCUGAGCCUUCCAGAAAAAGUUGUGUCUCCUCCUGAACCU	0.138
UUUAGUGACUAUGGUAAGCUUUUGUUGAUUUGUUUCAGACUUUUUUCUCCUGUAAAAAAACCGUACUGAUUAACUUUUUUAAAAGAAAGAUUUUACUGUAAAUAUGGAUUUUUUUUUUUG	1.81
UCAUAUCAAACAUUAAAUUUAAAAGUGACCACUCUUAAUUAAAAUUAACUUUUAAAUGUUUACCGGAGUACGUGCUGUGAAGUGAUCUGAAAUUUGUAAUAUUUUUGUCAUGAACCGUAC	0.286
AAAUCCUCAUUGACGAUUCAAUUUGUUGAAGGCCAAUUUGUGGACUCCUACGAUCCAACCACCGAAAACACUUUUACAAAGUUGAUCACAGUAAAUGGACAAGAAUAUCAUCUUCAACUU	0.113
GAAAAUAUAUUUAGUCGCAUAGUAGAUAUACAUGAACUUAGUGUAAAGUUACUGGGCCAUACCGAAGAUACAGUAGAAAUGACAGAUGAAGGCAGUCCCCAUCCACUAGUAGGAAGCUGC	1.5
GUCUCCAUUUUGUCAGCCAUGGAGCUCAUUUGGAACCUGUGUGAGAUUCUCUUUAUUGAAGCCGCACCAGCUGGCCCUCUCCUCCUUCACCUUCUUGACUGGGUCCGACUGCACGUGUGC	0.2
GAGGAAUUUGGAGUAGUUUCAAAUACAAGAUUGAUUGCUGCUGCUACUUCUGUAUUAAAAACCCGAUUUUCAUAUGCCUUUCCAAAGGAAUUUCCUUAUAGGAUGAAUCAUAUAUUAGAA	1.09

Set 2
Target: RNA binding protein fox-1 homolog 2, RRM domain, GST-SBP tag (RBFOX2, Homo sapiens, UniProt O43251-10, residues 100-194)
Method: RNA Bind-n-Seq
Molecule type: RNA
Matrix: in vitro
Concentration: 365 nM
Setting: natural RNA segment, single round, ends assumed
Baseline: no-protein control
Reading: higher = stronger binding
Shared flanks, not repeated: GGGAGUUCUACAGUCCGACGAUC … UGGAAUUCUCGGGUGCCAA
Target sequence (chain): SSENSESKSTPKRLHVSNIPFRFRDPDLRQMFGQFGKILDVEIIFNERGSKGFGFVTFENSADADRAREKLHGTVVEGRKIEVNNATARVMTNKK
Strand	RBNS enrichment (R)
CUGAGAGCAGCCCCUCCCCACCAUCCCUCCACAUGCUGCAAGGACAGACUGAAGGGCUGUGAGCAGGUGUAAGGGCUCCCACAUCCGUGAGCCUGUGUCCGCAGCUGCUG	0.612
GCUGUCUGGGACCGGAAACCAGCUUUGUCUCCAGGUAGAGACAACAUCCUGUGACUGCCAGGCAGAAAGGACAGGGCCCAGGUCAGCCUCAGUCUGCUGUGCCUCCAGAC	0.391
UUCUAUUUCUUCUUAGUUAUUAUGUGCCACCUUCUUAGUUAUUAUGUGCCACCUCCCCUAUGAGUGACGUGUUUGAUCACUAGCAGAAUAGCAAGCAGAGUAUCAUUCAU	0.776
AGACCUCGGAAAGAUGCCCCUGUUCCUUUGUUGCGGGUGGUUUUGGUAAGGCAGAGCCCUCUGCUGAGAAUGUAGUAUUGUUUUUCCCCUCUCCCUCCUGCUUUCUUUUU	1.37
CUCCUUCCCAUGUCCCUUUCACACCAAGGCGACUCAGACCUCUCAGAGACCCACUUUAUUCAGUUCUGUACAUAUGGGGACAUCGGCCCAAGCCCAGCCCACCUUAGCAU	0.492
CAGCUUGUCUGAGUCAGCUCAUCCCCCUCCAGCCAGGCCUGACCAGGGAUUCAUAGAGUUCCGGGCCUGGGAUUCUCCCAGCUGCGCCAUAGGUCAUCCUCAACAACCCA	0.338
CUUUUGUCAGGAUAACAUCAUAUAGCAUCUUGUUUGUUUUUCCUAAUCUCUAUGUACAUAUCUAUCUACCUGUAACCGUAGAUAGGUAUCUAGAUAGAUACCAAGCUUUU	1.22
GAAGUCAGUUUGUGAAUGUUGUCUGUUAAGUAUUACAAAAUAACAAGGAAAAAAAAACAAAAUAACAAGGGUUAGAAGUUCAAAGUAAAAAACAGACAUCUUUGAUUUCU	1.6
UUUAAACUGCACCUUGCAGAAAUGCAUUGCCAGAAAGCACCAGUAGCCUCCUAUCUGCAAGCAGAGUAGUGCUCUGCUCUGGGGAGGGGUCAUUGGAAACCAUAAUGCAG	0.302
GCAUGGUUAUUAGCACUUUAUGCUGGGAGCCAGCAGAGUGGUGGACUUCCGUGCUGACUAAGCUGUGGCUCAGCAUUCCAUUGCACACUGGUGAAGUGAGUAGGGAUUGU	0.758
AUUUUUUACUUUUAUAGAUUUUAAAACUAUGAUCCUUUAUAUGUGUGUUUUGGGGGAGCUAUGAUAAGUUUUAUGGCAAACGGUUGGUAUUGUUAACUUUUUAUUGUCAU	1.32
GGAAAAUUUGGGAGAAAUCUAAUCAUGCCUAUUAAGGAUGUAAGACAUUACAGCCUUAGAAGAAAGAUUGUGAAAAGCUGGGGAGAAAAUGCUUAAGGACAUGCUAGGGG	2.42

Set 3
Target: Interferon regulatory factor 5, full length, phosphomimetic (IRF5, Homo sapiens, UniProt Q13568-2, residues 1-514, S451D/S453D/S456D/S462D)
Method: protein-binding microarray
Molecule type: double-stranded DNA, one strand shown
Matrix: in vitro
Concentration: 940 nM top
Setting: 60-bp whole probe
With: salmon DNA 0.4 mg/ml
Baseline: random background probes
Reading: higher = stronger binding
Shared flanks, not repeated: GCCTAGCAC … GTCTTGATTCGCTTGACGCTGCTG
Strand	fitted relative affinity
TCATTTCCATTTTCTGAAACTGTGCTA	1.3 z-score
ATTTTTTTCTAATTGAAATGGTGCTAG	0.414 z-score
TCATTTTTCTAATTTACACTGTGCTAG	1.18 z-score
GACGGTTTCGTCACTGGGGACGTGCTA	5.23 z-score
GACGATCTCAGACTGGAAACGTGCTAG	-0.166 z-score
ATGAAATGCCACACACACACGTGCTAG	0.303 z-score
TTTCTGATCCATTTTGGTTTGTGCTAG	2.53 z-score
TTACATCTCAGTTTCGATTAGTGCTAG	8.81 z-score
GACGATCTCTGTTTCGAGACGTGCTAG	1.82 z-score
GTAGGTCTCCTTATCCTTTAGTGCTAG	0.59 z-score
TTAGGTCTCGGATTGGGTTAGTGCTAG	1.85 z-score
TGTACTTTCTATCTCTGTTTGTGCTAG	3.35 z-score
CTAGGTCTCGGTCTCGGTTAGTGCTAG	4.95 z-score
GACGGTTTCGGTTCCGGTACGTGCTAG	14 z-score
GACGGTCTGGGGTTTCGGGACGTGCTA	1.94 z-score
TTAGGAGTCAACTCTCTAATTGTGCTA	-0.539 z-score
TTAGAACTGAATATCGATTAGTGCTAG	-0.0138 z-score
TCCTTTATGTACTCTCTACATGTGCTA	0.947 z-score
CTTGTTTCCAGTATATTTAAGTGCTAG	1.3 z-score
CTCATTCTCTGCTTCTGTATGTGCTAG	2.33 z-score
TCACTTTTGCTTTACTGACTGTGCTAG	1.52 z-score
TGCTTCTAACAGAGGAGGTTGTGCTAG	-0.663 z-score

Set 4
Target: CCND1, cyclin fold, Cln2 fusion (human)
Method: yeast growth competition, sequencing
Matrix: yeast
Setting: strong parent motif
Baseline: not given
Reading: higher = stronger binding
Starting sequence: PKN2 docking peptide (human); VSAVRKLDFSDTM; partner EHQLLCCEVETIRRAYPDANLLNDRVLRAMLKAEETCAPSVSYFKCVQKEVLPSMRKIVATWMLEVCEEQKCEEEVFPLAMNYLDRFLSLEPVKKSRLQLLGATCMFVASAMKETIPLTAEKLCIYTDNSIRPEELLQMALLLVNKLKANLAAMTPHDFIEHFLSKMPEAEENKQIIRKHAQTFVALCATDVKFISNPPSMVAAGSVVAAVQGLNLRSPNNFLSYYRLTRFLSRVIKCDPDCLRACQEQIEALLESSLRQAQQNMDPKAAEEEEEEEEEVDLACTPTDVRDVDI
Substitution	normalised enrichment score
K6P	1.28
V4I	6.31
K6F	3.82
R5S	0.721
D8T	4.03
F9I	0.385
V4L	0.82
L7D	-0.108
S2I	3.09
A3Y	0.193
R5L	1.75
A3N	0.576
F9E	0.411
V4S	3.55
D8S	5.1
R5W	0.972
T12E	5.4
A3F	0.713
K6R	5.55
S2Q	3.75
L7T	0.203
L7K	0.23
R5T	0.862
D8R	0.844
R5N	0.465

Excerpt of the above (set 4):
Substitution	normalised enrichment score
K6R	5.55
V4S	3.55
S2Q	3.75
S2I	3.09
L7T	0.203
